Measured values from different studies.
Lines come from different studies, so protocols differ. ± marks the error that the study gave. ≈ marks a conversion by molar mass, not a printed value.

Compound	test	system	setting	how to read	measurement	result
CNC(=O)c1cc(Oc2ccc(NC(=O)Nc3ccc(Cl)c(C(F)(F)F)c3)cc2)ccn1	Holter ECG	human	oral, 400 mg twice daily, 1 cycles	–	QTc change from baseline	50 ms
Cc1cc(-c2cc(OC(=O)c3ccccc3)ccc2Cl)cc2nnc(Nc3ccc(OCCN4CCCC4)cc3)nc12	–	Dutch Belted rabbit, choroid	topical ocular, 40 µL drop of 0.6%, 2 h	–	tissue concentration	34 nM
O=C(O)c1cc(/N=N/c2ccc(S(=O)(=O)Nc3ccccn3)cc2)ccc1O	shake-flask	PEG400	37 °C	–	thermodynamic solubility	11.8 ± 0.58 mg/g
Cc1cccc(C)c1N(CC(=O)Nc1ccc(-c2ncon2)cc1)C(=O)C1CCS(=O)(=O)CC1	–	human, urine	oral, 200 mg	baseline: dose	urinary excretion unchanged	10.5%
Cc1c(O)cccc1C(=O)N[C@@H](CSc1ccccc1)[C@H](O)CN1C[C@H]2CCCC[C@H]2C[C@H]1C(=O)NC(C)(C)C	equilibrium dialysis	cellulose membrane, cell-free	pH 7.4, together with: 0.5% w/w Pluronic P85	–	effective permeability	53.1 ± 4.9 ×10⁻⁶ cm/s
CCCCN1CCC(N(Cc2ccccc2)C(=O)Nc2cc(F)cc(C(F)(F)F)c2)CC1	–	CD-1 female mouse, liver microsomes	0.8 µM	–	intrinsic clearance	22 mL/min/kg
[2H]C([2H])([2H])Oc1cc2c(cc1OC([2H])([2H])[2H])C1CC(=O)C(CC(C)C)CN1CC2 (stereo not drawn)	measured: deuterated total (α+β)-HTBZ	healthy human volunteers, plasma	oral, 6 mg single dose, standard meal	–	dose-normalized AUC(0-inf)	20.8 ng·h/mL
N[C@@H](CC(=O)N1CCn2c(nnc2C(F)(F)F)C1)Cc1cc(F)c(F)cc1F	–	healthy Korean subjects, plasma	oral, 100 mg single dose, ABCB1 G2677T/A AT+GT	–	AUC(0-2 h)	478 ± 192 ng·h/mL
C[C@H]1O[C@@H](O[C@H]2[C@@H](O)C[C@H](O[C@H]3[C@@H](O)C[C@H](O[C@H]4CC[C@@]5(C)[C@H](CC[C@@H]6[C@@H]5C[C@@H](O)[C@]5(C)[C@@H](C7=CC(=O)OC7)CC[C@]65O)C4)O[C@@H]3C)O[C@@H]2C)C[C@H](O)[C@@H]1O	–	human, serum	oral, dose not given	–	adjusted serum trough concentration	1.26 ± 0.04 nmol/L
COc1c(N2CCNC(C)C2)c(F)cc2c(=O)c(C(=O)NCCCN(C)C)cn(C3CC3)c12 (racemic)	measured: GFX formed plus unchanged prodrug	pigmented rabbits, choroid-retinal pigment epithelium	topical eye drop, 30 µL of 35 mg/mL, 1 h	baseline: prodrug over GFX 5 mg/mL	tissue level ratio	1.95 fold
O=C(NC1CCNCC1)c1[nH]ncc1NC(=O)c1c(Cl)cccc1Cl	shake flask	water	pH 6.5	–	thermodynamic solubility	1520 µg/mL (≈ 3.99 mM)
O=C(CCCN1CCC(O)(c2ccc(Cl)cc2)CC1)c1ccc(F)cc1	shake-flask	soybean oil	37 °C	–	thermodynamic solubility	1.22 ± 0.13 mg/g
COc1c(N2C[C@@H]3CCCN[C@@H]3C2)c(F)cc2c(=O)c(C(=O)O)cn(C3CC3)c12	–	male Hartley guinea pig, anaesthetized	intravenous infusion, 5 mg/kg, 10 min infusion	baseline: baseline	QTc change	11.2 ± 3%
CCCOc1ccc([C@H]2CNC(=O)N2c2ccc3[nH]cnc3c2)cc1	–	human, plasma	oral, 200 mg, single dose, fasted	–	Tmax	30 min
CCCC[C@@H]1NC(=O)[C@@H](NC(=O)[C@H](CCC(=O)O)NC(=O)CNC(=O)CN2CCN(CC(=O)O)CCN(CC(=O)O)CCN(CC(=O)O)CC2)CCCCNC(=O)C[C@@H](C(N)=O)NC(=O)[C@H](C(C)C)NC(=O)[C@@H]2CCCN2C(=O)[C@H](CCCNC(=N)N)NC(=O)CNC(=O)[C@H](Cc2c[nH]c3ccccc23)NC(=O)[C@H](CCCNC(=N)N)NC(=O)[C@@H](Cc2ccccc2)NC(=O)[C@H](Cc2c[nH]cn2)NC(=O)[C@H](CCC(=O)O)NC1=O [indium-111 labelled]	–	C57 mice, B16/F10 lung metastatic melanoma, liver	intravenous, 0.037 MBq, 24 h	–	tissue uptake	0.13 ± 0.02 %ID/g
CC(C)(Oc1ccc(CCNC(=O)c2ccc(Cl)cc2)cc1)C(=O)O	shake-flask	PEG400	37 °C	–	thermodynamic solubility	36 ± 1.71 mg/g
CC1(C)Oc2cc3oc(=O)ccc3cc2C[C@@H]1O	–	CD-1 mouse, male, spleen	oral gavage, 80 mg/kg daily, 4 weeks	–	organ weight	0.09 ± 0.01 g
O=C(Nc1ccc2sc(-c3ccc(F)c(F)c3)nc2c1)N1CCC(F)(F)C1	–	mice, brain	intraperitoneal, 5 mg/kg, 1 h	–	brain concentration	> 16 µM

A few entries again:
Compound	test	system	setting	how to read	measurement	result
O=C(O)c1cc(/N=N/c2ccc(S(=O)(=O)Nc3ccccn3)cc2)ccc1O	shake-flask	PEG400	37 °C	–	thermodynamic solubility	11.8 ± 0.58 mg/g
Cc1cccc(C)c1N(CC(=O)Nc1ccc(-c2ncon2)cc1)C(=O)C1CCS(=O)(=O)CC1	–	human, urine	oral, 200 mg	baseline: dose	urinary excretion unchanged	10.5%
Cc1c(O)cccc1C(=O)N[C@@H](CSc1ccccc1)[C@H](O)CN1C[C@H]2CCCC[C@H]2C[C@H]1C(=O)NC(C)(C)C	equilibrium dialysis	cellulose membrane, cell-free	pH 7.4, together with: 0.5% w/w Pluronic P85	–	effective permeability	53.1 ± 4.9 ×10⁻⁶ cm/s
